Measurements gathered from unrelated publications.
Lines come from different studies, so protocols differ.

`COC(=O)C1=CNC=C(C(=O)OC)C1c1ccc(F)c(C(F)(F)F)c1` has a Vd of 5.21 L/kg (male Sprague-Dawley rat, plasma; intravenous, 5 mg/kg).
The Vd of `OC1(C(F)(F)F)CCN(c2nc(Nc3ccnc(C(F)(F)F)c3)nc(-c3cccc(C(F)(F)F)n3)n2)C1` (stereo not shown) is reported as 16.9 L/kg (Sprague-Dawley rat, plasma; intravenous, 1 mg/kg).
`CCC1(CC)CC(=O)N(C2CCOc3ccc(C(=O)NC4CC(C)(C)Oc5ccccc54)cc32)C(=N)N1` (stereo not shown) has a Vd of 9.2 L/kg (male Wistar rat, plasma; intravenous).
`CC1(C)C(NC(=O)C(=NOC2(C(=O)O)CCC2)c2csc(N)n2)C(=O)N1OS(=O)(=O)O` (stereo not shown) gave a Vd of 0.19 L/kg (rat, plasma; intravenous, 10 mg/kg, single dose).
With `C/C(N)=N/C(=N\S(=O)(=O)c1ccc(C(F)(F)F)cc1)N1C[C@H](c2ccccc2)C(c2ccc(Cl)cc2)=N1` the Vd was 4.2 L/kg (male Sprague-Dawley rat, plasma; intravenous, 2 mg/kg).
`Cc1[nH]nc2c1N=C(c1ccccc1Cl)c1cnc(N3CCOCC3)cc1N2` gave a Vd of 4.34 L/kg (male Sprague-Dawley rat, plasma; intravenous, 1 mg/kg).
`CCC(CC)n1c(Cc2ccco2)nc2cc(C(=O)N[C@@H](CC(=O)O)c3ccccc3)ccc21` gave a Vd of 8 L/kg (male Sprague-Dawley rat, plasma; intravenous, 1 mg/kg).
For `Cc1cc2c(cc1O)C=C1C=CC(=O)C(C)(C)[C@H]1CC2`, the Vd was 4560 L/kg (male Sprague-Dawley rat, plasma; oral, 20 mg/kg).
For `O=C(C1CCN(c2nnnn2-c2ccccc2)CC1)N1CCCc2ccccc21`, the Vd was 1.03 L/kg (male Sprague-Dawley rat, plasma; intravenous, 1 mg/kg).
The Vd of `COc1cc(OC)c2c(=O)cc(-c3cc(C)c(OCCCN4CCN(C)CC4)c(C)c3)oc2c1` is reported as 14.1 L/kg (male Sprague-Dawley rat, plasma; oral, 20 mg/kg, single dose).
The Vd of `CCOP(=O)(CC(=O)Nc1ccc(S(=O)(=O)N(CC(N)=O)c2ccc(N(CC(N)=O)S(=O)(=O)c3ccc(OC)cc3)c3ccccc23)cc1)OCC` is reported as 2.16 L/kg (male Wistar rat, plasma; intravenous, 28 mg/kg, single dose).
`COCCN(C)CC(=O)NC(Cc1ccc(-c2ccccc2)cc1)B(O)O` (stereo not shown) has a Vd of 1.3 L/kg (rat, plasma; intravenous, 1 mg/kg).
For `OCC1OC(n2cnc3c(NCc4ccc(Br)s4)ncnc32)C(O)C1O` (stereo not shown), the Vd was 5.9 L/kg (male Sprague-Dawley rat, blood; intravenous, 6 mg/kg).

Some of these lines once more:
`CC1(C)C(NC(=O)C(=NOC2(C(=O)O)CCC2)c2csc(N)n2)C(=O)N1OS(=O)(=O)O` (stereo not shown) gave a Vd of 0.19 L/kg (rat, plasma; intravenous, 10 mg/kg, single dose).
